Assay results collected from several papers.
Every numbered part comes from another study and shows a few of its results, in no order.

Sample 1
Target: Histone acetyltransferase KAT6A, winged helix 1, GST fusion (KAT6A, Homo sapiens, UniProt Q92794, residues 1-85)
Technique: protein binding microarray
Form: double-stranded DNA, one strand shown
Matrix: in vitro
Tested at: not given
Notes: 8-mer, flanks averaged, mean of 2 arrays, mostly near background
Relative to: not given
Direction: higher = stronger binding
Target sequence (chain): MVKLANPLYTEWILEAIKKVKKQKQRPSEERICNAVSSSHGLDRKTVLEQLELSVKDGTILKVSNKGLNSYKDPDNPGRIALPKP
Strand | E-score
AATCCAGT | -0.176
TCGATCCA | -0.0401
CCTACCGC | 0.278
CATCACAC | -0.147
CACATCGA | -0.0507
ACATAACT | -0.068
CAAGTGAG | -0.109
TTACTCAA | 0.00206
CTAACCAG | -0.295
CATGTCTC | -0.0501

Sample 2
Target: Interferon regulatory factor 3, full length, phosphomimetic (IRF3, Homo sapiens, UniProt Q14653, residues 1-427, S386D/S396D/S398D/S402D/T404D/S405D)
Technique: protein-binding microarray
Form: double-stranded DNA, one strand shown
Matrix: in vitro
Tested at: 2540 nM top
Notes: 60-bp whole probe
With: salmon DNA 0.4 mg/ml
Relative to: random background probes
Direction: higher = stronger binding
Constant ends, left off below: GCCTAGCAC … GTCTTGATTCGCTTGACGCTGCTG
Construct (chain): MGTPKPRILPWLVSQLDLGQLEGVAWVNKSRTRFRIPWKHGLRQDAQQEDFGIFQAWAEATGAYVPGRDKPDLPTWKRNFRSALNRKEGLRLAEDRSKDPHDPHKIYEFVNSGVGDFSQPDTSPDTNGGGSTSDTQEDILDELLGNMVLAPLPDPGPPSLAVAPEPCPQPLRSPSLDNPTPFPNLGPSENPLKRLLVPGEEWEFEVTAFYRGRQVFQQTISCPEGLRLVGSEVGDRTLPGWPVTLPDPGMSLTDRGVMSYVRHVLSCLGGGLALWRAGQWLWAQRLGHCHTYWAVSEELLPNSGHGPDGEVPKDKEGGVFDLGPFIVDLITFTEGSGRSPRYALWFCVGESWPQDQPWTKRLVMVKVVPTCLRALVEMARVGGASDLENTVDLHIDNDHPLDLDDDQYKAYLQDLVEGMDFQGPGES
Strand | fitted relative affinity [z-score]
GACGGTTTGCTTCTCCTGACGTGCTAG | 1.39
GACGGACTGGGTCGCGGGACGTGCTAG | -0.726
GACGGACTGGGCCTCGGGACGTGCTAG | -1.05
GACGGACTGGACAGTGGGGACGTGCTA | -0.572
TTTTCATTTTTTTTCATCATGTGCTAG | 3.73

Sample 3
Target: Sal-like protein 4, full length isoform B (SALL4, Homo sapiens, UniProt Q9UJQ4-2, residues 1-616)
Technique: universal PBM
Form: double-stranded DNA, one strand shown
Matrix: in vitro
Tested at: not given
Notes: 8-mer, flanks averaged, mean of replicates
Direction: higher = stronger binding
Strand | E-score
GGCGATGA | -0.134
CAGGCGGG | -0.333
CATACGGG | -0.151
ATCAATGC | -0.00358
CAACTCAA | 0.0963
AAGGGACG | -0.261
AGTTCTGA | 0.0571
GAAGCCTC | -0.197

Other studies, line by line
Molecule | target | assay | system | setting | scale | quantity | result
PhoQ, residues 284 288 289 292 302 303 SVHLDV | PhoP, residues 12 14 15 18 19 QQAYL (Escherichia coli, UniProt P23836) | Sort-seq, measured: YFP reporter | E. coli | PhoQ-PhoP variant library, with: 10 µM Mg2+ | relative to: high Mg2+ state, higher = stronger signaling | fold induction | 20.5

Excerpt of the above (sample 1):
Strand | E-score
AATCCAGT | -0.176
CAAGTGAG | -0.109
